Published values collected from several papers.
Compare with care: the assays were run in different laboratories. “And” joins repeats or separate records; there may be more than shown. ± gives the spread as reported.

Compound	target or system	test	test system	conditions	how to read	quantity	value
CC(C)(C)C(=O)OCOP(=O)(OCOC(=O)C(C)(C)C)C1CCCN(O)C1=O (stereo not shown)	NCI-H460	–	–	–	–	log TGI	-4.89 log M
O=C1NC2(CC2)COc2ncc(F)cc2[C@H]2COCCN2c2ccn3ncc1c3n2	–	–	Sprague-Dawley rat, male, serum	oral, 10 mg/kg/day, 4 weeks daily, end of treatment	–	total cholesterol	1.24 ± 0.29 mmol/L
COc1ccccc1-c1n[nH]c2nc(N[C@H]3CC[C@H](NS(=O)(=O)CC(C)C)CC3)ncc12	–	bead binding, competition bead pull-down, refers to: LINJ.30.2340	Leishmania donovani extract	10 µM	baseline: vehicle	relative abundance	0.88
Cc1cc(C(=O)Nc2nc3cccc(C)c3n2[C@H]2CCCCN(C(=O)/C=C/CN(C)C)C2)ccn1	Trypanosoma brucei	propidium iodide flow cytometry, refers to: SubG0 phase	bloodstream CLK1 over-expression induced	concentration not given	–	cell cycle distribution	1.5% and 3% and 1%
CCOC(=O)C1(Cc2ccc(C(F)(F)F)cc2)Oc2cc(F)ccc2N(Cc2ccc(C(F)(F)F)cc2)C1=O (stereo not shown)	Arabidopsis thaliana	stem length, petri dish germination	Col-0, 1/2 MS medium	200 µg/mL, 7 days, 22 °C, dark	–	inhibition	46.8%
O=C(O)C(Cl)Cl.OCCN(CCO)CCO	Xanthium sibiricum	–	–	15 mg/mL, 21 days, pre-emergence, greenhouse	–	herbicidal inhibition	0%
CN1CCN(S(=O)(=O)c2ccc(-c3ccc4ncnc(Nc5ccc(Cl)cc5)c4c3)cc2)CC1	Plasmodium falciparum	parasite growth, SYBR Green fluorescence	C235 (TM91C235), drug-resistant	–	–	EC50	0.17 µM
CCOC(=O)C1(Cc2c(F)cccc2F)Oc2cc(F)ccc2N(Cc2c(F)cccc2F)C1=O (stereo not shown)	Arabidopsis thaliana	root length, petri dish germination	Col-0, 1/2 MS medium	50 µg/mL, 7 days, 22 °C, dark	–	inhibition	8.94%
CN(C)c1cccc(-c2ccc3ncnc(Nc4ccc(OCc5cccc(F)c5)c(Cl)c4)c3c2)c1	Plasmodium falciparum	parasite growth, SYBR Green	D6	blood stage	–	EC50	0.46 µM
Cc1cc(Oc2nc(N3CC[C@@H](c4ccncc4)C3)ncc2F)[nH]n1	RD-ES	cell proliferation	–	–	–	IC50	100 µM
CCOC(=O)C1(Cc2cccc(C)c2)Oc2cc(F)ccc2N(Cc2cccc(C)c2)C1=O (stereo not shown)	Arabidopsis thaliana	root length, petri dish germination	Col-0, 1/2 MS medium	200 µg/mL, 7 days, 22 °C, dark	–	inhibition	75.6%
CC(C)CC(C(=O)N1CC2(CC1C#N)C(=O)Nc1ccccc12)N(C)C(=O)c1cc2c(F)cc(F)c(F)c2[nH]1 (stereo not shown)	human coronavirus 229E	viral replication	MRC-5	0.0125 µM	–	inhibition	100%
CC(O)CN(CC(C)O)CC(C)O.O=C(O)C(Cl)Cl (stereo not shown)	Xanthium sibiricum	–	–	15 mg/mL, 21 days, post-emergence, greenhouse	–	herbicidal inhibition	-56%
COc1ccccc1-c1n[nH]c2nc(NC3CCN(C(=O)Cc4ccc(F)cc4F)CC3)ncc12	–	bead binding, competition bead pull-down, refers to: LINJ.25.2450	Leishmania donovani extract	10 µM	baseline: vehicle	relative abundance	0.94
O=S(=O)(c1ccc(-c2ccc3ncnc(Nc4ccc(OCc5cccc(F)c5)c(Cl)c4)c3c2)cc1)N1CCOCC1	Plasmodium falciparum	parasite growth, SYBR Green	D6	blood stage	–	EC50	0.2 µM
CC[C@H](C)[C@H](NC(=O)[C@H](CO)NC(=O)[C@H](Cc1ccc(O)cc1)NC(=O)[C@H](Cc1ccc(O)cc1)NC(=O)[C@H](CC(N)=O)NC(=O)CNC(=O)[C@H](CO)NC(=O)[C@H](Cc1ccc(O)cc1)NC(=O)[C@H](CO)NC(=O)[C@H](CO)NC(=O)[C@H](CC(N)=O)NC(=O)COCCOCCNC(=O)CN1CCN(CC(=O)O)CCN(CC(=O)O)CCN(CC(=O)O)CC1)C(=O)N[C@@H](CC(C)C)C(N)=O [copper-64 labelled]	–	dynamic PET	KPC mouse, pancreatic cancer model, blood	intravenous, 22.5 min, 49 days after tamoxifen	–	tumour uptake	3.12 %ID/mL
CCCCCC[C@H]1C(=O)O[C@H](C)[C@H](NC(=O)c2cccc(NC=O)c2O)C(=O)O[C@@H](C)[C@@H]1OC(=O)CC(C)C	Bovine alphaherpesvirus 1	viral replication	bovine cells	24 h	–	IC50	0.012 µM
CCOC(=O)C1(Cc2cc(F)c(F)c(F)c2)Oc2cc(F)ccc2N(Cc2cc(F)c(F)c(F)c2)C1=O (stereo not shown)	Arabidopsis thaliana	root length, petri dish germination	Col-0, 1/2 MS medium	50 µg/mL, 7 days, 22 °C, dark	–	inhibition	35%
CC(C)(C)OC(=O)N1CCN(c2ccc(-c3ccc4ncnc(Nc5ccc(OCc6cccc(F)c6)c(Cl)c5)c4c3)cc2)CC1	Plasmodium falciparum	parasite growth, SYBR Green	D6	blood stage	–	EC50	0.86 µM
CCOC(=O)C1(Cc2ccc(F)cc2)Oc2cc(F)ccc2N(Cc2ccc(F)cc2)C1=O (stereo not shown)	Arabidopsis thaliana	stem length, petri dish germination	Col-0, 1/2 MS medium	200 µg/mL, 7 days, 22 °C, dark	–	inhibition	47.6%
c1ccc(Nc2ncnc3ccc(-c4cccc(N5CCOCC5)c4)cc23)cc1	Plasmodium falciparum	parasite growth, SYBR Green fluorescence	C235 (TM91C235), drug-resistant	–	–	EC50	4.6 µM
CC[C@H](C)CCCCC(=O)N[C@@H](CCN)C(=O)N[C@H](C(=O)N[C@@H](CCN)C(=O)N[C@H]1CCNC(=O)[C@H]([C@@H](C)O)NC(=O)[C@H](CCN)NC(=O)[C@H](CCN)NC(=O)[C@H](CC(C)C)NC(=O)[C@@H](CC(C)C)NC(=O)[C@H](CCN)NC1=O)[C@@H](C)O	Escherichia coli	daily serial passaging	ATCC 8739	highest sub-MIC, 24 days	baseline: initial MIC	MIC fold change	1.79

Some of these lines once more:
Compound	target or system	test	test system	conditions	how to read	quantity	value
COc1ccccc1-c1n[nH]c2nc(NC3CCN(C(=O)Cc4ccc(F)cc4F)CC3)ncc12	–	bead binding, competition bead pull-down, refers to: LINJ.25.2450	Leishmania donovani extract	10 µM	baseline: vehicle	relative abundance	0.94
